Published values from different studies.
Each numbered part is a random draw from the data of one study; scales do not carry over between parts. Values joined by “and” are separate records of one study, mostly repeats; a detail may differ.
UniProt P37173, sequence (whole entry, looked up): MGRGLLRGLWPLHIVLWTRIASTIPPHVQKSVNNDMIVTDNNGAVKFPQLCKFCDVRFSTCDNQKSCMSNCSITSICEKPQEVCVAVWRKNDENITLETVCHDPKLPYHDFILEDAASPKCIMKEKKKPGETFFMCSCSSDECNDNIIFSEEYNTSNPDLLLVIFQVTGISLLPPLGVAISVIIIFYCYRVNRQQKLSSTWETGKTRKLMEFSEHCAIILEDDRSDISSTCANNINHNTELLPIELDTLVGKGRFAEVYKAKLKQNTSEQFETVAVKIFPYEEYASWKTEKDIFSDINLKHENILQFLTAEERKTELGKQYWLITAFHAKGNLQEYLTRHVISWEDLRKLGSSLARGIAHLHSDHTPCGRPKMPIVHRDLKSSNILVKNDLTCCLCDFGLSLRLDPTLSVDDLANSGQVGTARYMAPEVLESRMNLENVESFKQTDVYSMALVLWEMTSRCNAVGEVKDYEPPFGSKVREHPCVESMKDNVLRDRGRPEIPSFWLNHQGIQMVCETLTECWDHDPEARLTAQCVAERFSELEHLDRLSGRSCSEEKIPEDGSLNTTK
UniProt Q9Y2U5, sequence (whole entry, looked up): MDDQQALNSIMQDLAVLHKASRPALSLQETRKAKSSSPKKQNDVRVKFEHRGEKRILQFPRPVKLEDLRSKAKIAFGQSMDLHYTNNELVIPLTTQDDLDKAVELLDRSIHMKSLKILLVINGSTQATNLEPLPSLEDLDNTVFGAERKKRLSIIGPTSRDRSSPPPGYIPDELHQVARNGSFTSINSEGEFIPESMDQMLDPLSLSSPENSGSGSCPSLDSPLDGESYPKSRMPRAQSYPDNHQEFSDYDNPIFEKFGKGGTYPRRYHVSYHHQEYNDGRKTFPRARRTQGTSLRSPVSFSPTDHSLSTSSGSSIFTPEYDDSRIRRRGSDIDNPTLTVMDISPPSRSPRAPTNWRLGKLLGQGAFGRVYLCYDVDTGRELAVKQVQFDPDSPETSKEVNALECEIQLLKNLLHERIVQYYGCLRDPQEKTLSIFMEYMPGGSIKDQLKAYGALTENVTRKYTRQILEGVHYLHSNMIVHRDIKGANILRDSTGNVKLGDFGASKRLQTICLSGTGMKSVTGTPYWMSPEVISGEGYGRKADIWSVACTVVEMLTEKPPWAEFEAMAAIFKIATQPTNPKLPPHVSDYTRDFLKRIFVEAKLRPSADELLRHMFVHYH
UniProt P53778, sequence (whole entry, looked up): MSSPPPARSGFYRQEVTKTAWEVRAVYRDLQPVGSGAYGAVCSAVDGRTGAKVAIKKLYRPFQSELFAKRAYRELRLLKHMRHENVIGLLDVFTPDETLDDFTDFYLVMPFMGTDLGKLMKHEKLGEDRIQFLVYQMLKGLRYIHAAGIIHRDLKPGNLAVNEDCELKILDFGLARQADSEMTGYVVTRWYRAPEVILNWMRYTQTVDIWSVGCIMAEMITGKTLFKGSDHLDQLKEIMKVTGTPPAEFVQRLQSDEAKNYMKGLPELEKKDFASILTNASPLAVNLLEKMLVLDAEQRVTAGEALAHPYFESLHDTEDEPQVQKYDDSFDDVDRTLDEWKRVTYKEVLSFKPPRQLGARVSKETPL
UniProt Q6PHR2, sequence (whole entry, looked up): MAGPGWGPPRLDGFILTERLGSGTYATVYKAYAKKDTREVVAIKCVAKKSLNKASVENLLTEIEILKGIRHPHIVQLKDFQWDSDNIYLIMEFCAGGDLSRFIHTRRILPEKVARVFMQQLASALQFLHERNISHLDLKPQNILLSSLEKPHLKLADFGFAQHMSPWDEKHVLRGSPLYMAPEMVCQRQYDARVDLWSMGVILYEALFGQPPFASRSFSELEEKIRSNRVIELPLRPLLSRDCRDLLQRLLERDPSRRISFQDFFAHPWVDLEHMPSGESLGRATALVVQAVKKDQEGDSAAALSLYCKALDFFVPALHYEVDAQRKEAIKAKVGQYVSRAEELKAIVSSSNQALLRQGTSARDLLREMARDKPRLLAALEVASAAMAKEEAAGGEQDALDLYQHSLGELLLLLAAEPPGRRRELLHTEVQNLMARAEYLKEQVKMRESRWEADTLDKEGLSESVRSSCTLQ
UniProt Q15835, sequence (whole entry, looked up): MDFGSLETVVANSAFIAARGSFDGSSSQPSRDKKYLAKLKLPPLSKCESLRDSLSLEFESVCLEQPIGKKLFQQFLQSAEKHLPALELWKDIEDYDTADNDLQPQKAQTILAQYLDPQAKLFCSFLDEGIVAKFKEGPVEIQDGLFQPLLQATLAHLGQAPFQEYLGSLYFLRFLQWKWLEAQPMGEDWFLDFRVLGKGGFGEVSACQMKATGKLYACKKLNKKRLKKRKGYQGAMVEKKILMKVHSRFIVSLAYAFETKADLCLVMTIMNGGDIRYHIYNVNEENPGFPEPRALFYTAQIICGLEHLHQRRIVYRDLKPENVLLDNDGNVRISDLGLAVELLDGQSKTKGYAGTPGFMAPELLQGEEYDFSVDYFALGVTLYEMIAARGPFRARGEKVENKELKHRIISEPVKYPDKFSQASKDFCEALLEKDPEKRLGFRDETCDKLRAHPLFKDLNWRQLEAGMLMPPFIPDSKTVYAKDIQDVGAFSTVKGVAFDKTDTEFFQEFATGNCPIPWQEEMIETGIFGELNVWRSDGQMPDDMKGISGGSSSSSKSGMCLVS
UniProt Q00526, sequence (whole entry, looked up): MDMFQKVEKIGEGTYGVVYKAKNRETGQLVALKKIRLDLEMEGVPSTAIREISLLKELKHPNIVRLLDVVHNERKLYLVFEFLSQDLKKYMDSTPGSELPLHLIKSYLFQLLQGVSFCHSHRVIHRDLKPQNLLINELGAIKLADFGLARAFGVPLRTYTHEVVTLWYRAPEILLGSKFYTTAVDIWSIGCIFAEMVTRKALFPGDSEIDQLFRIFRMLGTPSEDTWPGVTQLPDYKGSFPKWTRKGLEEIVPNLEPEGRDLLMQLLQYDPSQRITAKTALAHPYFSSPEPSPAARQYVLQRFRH
UniProt P41743, sequence (whole entry, looked up): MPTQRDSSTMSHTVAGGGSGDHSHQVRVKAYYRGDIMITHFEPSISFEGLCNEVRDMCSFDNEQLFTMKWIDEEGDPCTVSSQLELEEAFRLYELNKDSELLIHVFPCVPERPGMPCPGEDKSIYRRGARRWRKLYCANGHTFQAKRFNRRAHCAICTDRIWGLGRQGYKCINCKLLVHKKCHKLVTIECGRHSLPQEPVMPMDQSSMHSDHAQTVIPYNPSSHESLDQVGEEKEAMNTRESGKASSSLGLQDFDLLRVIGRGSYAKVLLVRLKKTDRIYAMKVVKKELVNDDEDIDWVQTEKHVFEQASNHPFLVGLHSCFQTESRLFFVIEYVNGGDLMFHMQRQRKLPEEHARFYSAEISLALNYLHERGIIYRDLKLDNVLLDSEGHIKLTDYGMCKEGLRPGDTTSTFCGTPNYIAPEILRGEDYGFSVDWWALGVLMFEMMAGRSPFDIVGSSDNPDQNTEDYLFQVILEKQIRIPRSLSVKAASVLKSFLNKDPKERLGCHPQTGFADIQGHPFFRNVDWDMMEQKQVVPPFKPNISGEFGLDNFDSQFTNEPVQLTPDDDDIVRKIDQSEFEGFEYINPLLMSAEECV
UniProt P45983, sequence (whole entry, looked up): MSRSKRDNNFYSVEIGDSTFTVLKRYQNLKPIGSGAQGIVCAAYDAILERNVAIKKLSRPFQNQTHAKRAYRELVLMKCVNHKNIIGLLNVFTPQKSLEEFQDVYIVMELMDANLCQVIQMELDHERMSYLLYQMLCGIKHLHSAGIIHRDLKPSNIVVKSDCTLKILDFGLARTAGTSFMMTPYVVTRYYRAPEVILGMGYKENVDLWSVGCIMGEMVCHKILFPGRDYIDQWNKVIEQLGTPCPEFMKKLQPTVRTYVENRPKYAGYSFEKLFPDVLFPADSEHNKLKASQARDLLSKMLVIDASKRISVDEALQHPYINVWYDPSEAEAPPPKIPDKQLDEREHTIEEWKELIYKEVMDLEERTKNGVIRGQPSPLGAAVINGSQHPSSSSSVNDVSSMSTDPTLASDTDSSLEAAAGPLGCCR

Set 1
SMILES: CC(C)n1cnc(-c2ccc(F)cc2)c1-c1ncc(C(=O)Nc2ccc(N3CCN(C)CC3)cc2)[nH]1
Technique: phase 2a clinical trial
Species: idiopathic pulmonary fibrosis patients
Reference: patients
measured	dose	notes	patients with TEAEs [%]
muscular weakness	dose not given	grade 1, all drug arms	1
chest discomfort	dose not given	grade 1, all drug arms	1
reproductive and breast disorders	dose not given	grade 1, all drug arms	1
back pain	60 mg once daily	grade 2 maximum intensity	1

Set 2
SMILES: CC(=O)c1c(NS(C)(=O)=O)c2cc(-c3ccc(Cl)cc3)c(-c3ccc(Cl)cc3Cl)nc2n(C)c1=O
Observed: cell-free assay
Technique: competition with immobilised ligand
Concentration: 1 µM
target	remaining binding [%]
RAC-gamma serine/threonine-protein kinase (AKT3, Homo sapiens, UniProt Q9Y243)	91
Mitogen-activated protein kinase 12 (MAPK12, Homo sapiens, UniProt P53778)	100
Mitogen-activated protein kinase 15 (MAPK15, Homo sapiens, UniProt Q8TD08)	100
Cyclin-dependent kinase 3 (CDK3, Homo sapiens, UniProt Q00526)	100
Tyrosine-protein kinase ABL1, phosphorylated (ABL1, Homo sapiens, UniProt P00519, F317L)	89
Peripheral plasma membrane protein CASK (CASK, Homo sapiens, UniProt O14936)	92
Mitogen-activated protein kinase kinase kinase 2 (MAP3K2, Homo sapiens, UniProt Q9Y2U5)	93
Tyrosine-protein kinase CSK (CSK, Homo sapiens, UniProt P41240)	100
Rhodopsin kinase GRK1 (GRK1, Homo sapiens, UniProt Q15835)	84
ALK tyrosine kinase receptor (ALK, Homo sapiens, UniProt Q9UM73, L1196M)	97
3-phosphoinositide-dependent protein kinase 1 (PDPK1, Homo sapiens, UniProt O15530)	100
Tyrosine-protein kinase Lck (LCK, Homo sapiens, UniProt P06239)	100
Tyrosine-protein kinase FRK (FRK, Homo sapiens, UniProt P42685)	100
Fibroblast growth factor receptor 3 (FGFR3, Homo sapiens, UniProt P22607)	100
Serine/threonine-protein kinase PAK 6 (PAK6, Homo sapiens, UniProt Q9NQU5)	100
Epidermal growth factor receptor (EGFR, Homo sapiens, UniProt P00533)	100
TGF-beta receptor type-2 (TGFBR2, Homo sapiens, UniProt P37173)	100
Tyrosine-protein kinase Fgr (FGR, Homo sapiens, UniProt P09769)	100
Cyclin-dependent kinase 18 (CDK18, Homo sapiens, UniProt Q07002)	100
Protein kinase C iota type (PRKCI, Homo sapiens, UniProt P41743)	100
Insulin receptor (INSR, Homo sapiens, UniProt P06213)	73
Serine/threonine-protein kinase ULK3 (ULK3, Homo sapiens, UniProt Q6PHR2)	80
Phosphatidylinositol 4-phosphate 5-kinase type-1 gamma (PIP5K1C, Homo sapiens, UniProt O60331)	100
Myosin light chain kinase (MYLK3, Homo sapiens, UniProt Q32MK0)	91
Mitogen-activated protein kinase 8 (MAPK8, Homo sapiens, UniProt P45983)	63

Set 3
SMILES: c1ccc(Oc2ccc(Nc3c4c(nc5ccccc35)CCC4)cc2)cc1
Organism: Leishmania donovani
observed	technique	strain	matrix	concentration	time	inhibition
parasite killing		DD8	intracellular amastigotes	4 µM	24 h	54% and 50% and 61%
parasite viability	resazurin	DD8	promastigotes	3.33 µM		87% and 94% and 99% and 90% and 93%
parasite killing		DD8	intracellular amastigotes	0.008 µM	96 h	6%
parasite growth	high-content imaging	MHOM/IN/80/DD8	amastigotes in THP-1 cells	40 µM		100%
parasite growth	high-content imaging	MHOM/IN/80/DD8	amastigotes in THP-1 cells	8 µM		100%
parasite viability	resazurin	DD8	promastigotes	0.066 µM		-4% and -5%
parasite killing		DD8	promastigotes	0.66 µM	48 h	52% and 54%

Set 4
Target: Centromere-binding protein 1, full length, His-tagged (CBF1, Saccharomyces cerevisiae, UniProt P17106, residues 1-351)
UniProt P17106, sequence (whole entry, looked up): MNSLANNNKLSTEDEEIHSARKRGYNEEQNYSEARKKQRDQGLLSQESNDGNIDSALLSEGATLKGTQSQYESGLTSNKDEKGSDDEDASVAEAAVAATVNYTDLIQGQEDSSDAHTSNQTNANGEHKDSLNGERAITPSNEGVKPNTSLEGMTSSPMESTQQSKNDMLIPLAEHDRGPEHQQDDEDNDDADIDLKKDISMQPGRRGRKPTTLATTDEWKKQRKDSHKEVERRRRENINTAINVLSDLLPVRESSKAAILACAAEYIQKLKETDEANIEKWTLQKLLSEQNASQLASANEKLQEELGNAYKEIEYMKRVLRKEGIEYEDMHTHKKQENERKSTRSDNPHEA
Technique: competition protein-binding microarray
Molecule type: double-stranded DNA, one strand shown
Matrix: in vitro
Concentration: 2 µM
Notes: whole 60-bp probe, lowest competitor level
Together with: Pho4 competitor, 0.05 µM
Reading: higher = stronger binding
Strand	fluorescence intensity
GCCAGTCTGAGAAAGCACGCTGCTTGTGCTTGTTGGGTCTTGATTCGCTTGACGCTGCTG	64.9 a.u.
CGCCGGGCGGCTTTGCACGTTTGAACAAGTATATCCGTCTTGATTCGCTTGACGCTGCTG	70.2 a.u.
CCTGCAGGGGTTCCACGCGTGCCAGGTAGCGGTTGAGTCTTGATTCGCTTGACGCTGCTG	57.5 a.u.
TGCGCAACAACTTGAATCGTGGGTGTATGTCTAGAAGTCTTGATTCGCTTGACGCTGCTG	71 a.u.
CTTTCTGCCAAATTGAACGTGTCGGTCAAGCAATCCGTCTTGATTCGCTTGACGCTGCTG	83.3 a.u.
GGATCTTTGAAAGCAGCCGTGCCGATATACACAGTAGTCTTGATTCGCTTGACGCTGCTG	64.3 a.u.
CCTTTTCAATGAAAGCACGTTACTGAATTCAGAGAAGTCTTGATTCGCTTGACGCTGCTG	289 a.u.
AAATTACTAAGTTGCCCAGTGGGTGACGCCGTATGAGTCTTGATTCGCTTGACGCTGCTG	59.1 a.u.

Set 5
SMILES: Cc1cncc2cccc(S(=O)(=O)N3CCCN(C(=O)CN)C[C@@H]3C)c12
Observed: enzyme activity
Mode: inhibitor
Concentration: 0.5 µM
Reference: control
target	remaining activity
cAMP-dependent protein kinase catalytic subunit alpha (PRKACA, Homo sapiens, UniProt P17612)	99.5%
Death-associated protein kinase 2 (DAPK2, Homo sapiens, UniProt Q9UIK4)	103%
cGMP-dependent protein kinase 1, isoform beta (PRKG1, Homo sapiens, UniProt Q13976)	85%
Protein kinase C alpha type (PRKCA, Homo sapiens, UniProt P17252)	109%
Serine/threonine-protein kinase 10 (STK10, Homo sapiens, UniProt O94804)	42%
TGF-beta receptor type-2 (TGFBR2, Homo sapiens, UniProt P37173)	132%

Other studies, line by line
Compound	tested on	test	system	setting	how to read	endpoint	result
Cc1cccc(/C=N/Nc2cc(N3CCOCC3)nc(OCCc3ccccn3)n2)c1	L444P/L444P Gaucher fibroblasts	4-MUG hydrolysis in lysate		50 nM, 72 h	reference: vehicle	enzyme activity	195% and 171% and 158% and 154% and 159% and 168%
O=C(COc1ccccc1P(=O)(O)O)NCC(F)(F)c1ccc(F)c(F)c1	14-3-3 protein beta/alpha (Homo sapiens, UniProt P31946)	inhibitor, fluorescence anisotropy competition		together with: FITC-labelled client peptide		Ki	~500 µM
O=C(COc1ccc(Cl)cc1)NC1CCC(NC(=O)COc2ccc(Cl)cc2)CC1 (stereo not shown)	alpha-galactosidase (human)		healthy dermal fibroblasts	concentration not given	reference: DMSO	enzyme activity	125% and 98.9% and 129% and 123% and 107% and 99.1% and 95.5%
CN(C(=O)c1ccn2ncc(-c3ccc(C(N)=O)cc3)c2c1)c1ccc(C#N)cn1	Phosphatidylinositol 4-kinase beta (PI4KB, Homo sapiens, UniProt Q9UBF8)	enzyme activity, inhibitor, ADP-Glo				IC50	1 µM
c1ccc2c(-c3nn4c(-c5ccncc5)nnc4s3)c[nH]c2c1	L444P/L444P Gaucher fibroblasts	4-MUG hydrolysis in lysate		0.05 µM, 72 h	reference: vehicle	enzyme activity	102% and 116% and 117% and 123%

Excerpt of the above (set 3):
observed	technique	strain	matrix	concentration	time	inhibition
parasite killing		DD8	intracellular amastigotes	0.008 µM	96 h	6%
parasite growth	high-content imaging	MHOM/IN/80/DD8	amastigotes in THP-1 cells	40 µM		100%
parasite growth	high-content imaging	MHOM/IN/80/DD8	amastigotes in THP-1 cells	8 µM		100%
